Measured values from different studies.
Each numbered part is a random draw from the data of one study; scales do not carry over between parts.

Block 1
Target: Histone acetyltransferase KAT6A, both winged helices, GST fusion (KAT6A, Homo sapiens, UniProt Q92794, residues 1-181)
Technique: protein binding microarray
Form: double-stranded DNA, one strand shown
Sample: in vitro
Tested at: not given
Notes: 8-mer, flanks averaged, mean of 2 arrays, mostly near background
Reference: not given
Reading: higher = stronger binding
Target sequence (chain): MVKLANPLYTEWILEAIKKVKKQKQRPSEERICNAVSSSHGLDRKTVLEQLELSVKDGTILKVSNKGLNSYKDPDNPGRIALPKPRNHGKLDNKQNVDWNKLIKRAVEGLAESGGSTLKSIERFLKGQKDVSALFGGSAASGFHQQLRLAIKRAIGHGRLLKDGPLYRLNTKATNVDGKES
Strand | E-score
TCTTTGCA | -0.177
GGAGGAAC | 0.0384
GCTAGGGA | -0.0579
AAGATATG | -0.104
AGACTACG | -0.00832
GGACTGTA | -0.0935
GATCTACA | -0.125
GGATTCTA | -0.152
CTCAAGAC | -0.0291
CAGTGCTA | -0.0251
CGGTTACC | 0.166
GGATACCA | -0.0311
TACGTATA | 0.0957
AAATCTAC | -0.0231
CAGTACTG | -0.0343
CTTGTGCC | -0.0962
CCAGGCAC | -0.202
CCTTAGGC | -0.038
CTGCAAAA | -0.149
CGGTCTAG | 0.0744
ACACCATG | -0.17
GGATATAA | -0.0881

Block 2
Target: Interferon regulatory factor 5, full length, phosphomimetic (IRF5, Homo sapiens, UniProt Q13568-2, residues 1-514, S451D/S453D/S456D/S462D)
Technique: protein-binding microarray
Form: double-stranded DNA, one strand shown
Sample: in vitro
Tested at: 940 nM top
Notes: 60-bp whole probe
Together with: salmon DNA 0.4 mg/ml
Reference: random background probes
Reading: higher = stronger binding
Shared flanks, not repeated: GCCTAGCAC … GTCTTGATTCGCTTGACGCTGCTG
Strand | fitted relative affinity [z-score]
AACGGTATCGGACTGGGGACGTGCTAG | 2.57
CACTCTCTGCTTGTATCTGGGTGCTAG | 3.14
TTAGATATAAGACTGGATTAGTGCTAG | -0.366
GACGGTATCGACACTCGGGACGTGCTA | 3.6
TCACCTCTCCCCTCTTGTACTGTGCTA | 0.448
GACGATTTCGGGTTTCGAGTCGTGCTA | 4.19
TTAGATTTCCTACTGCTTTAGTGCTAG | 0.237
GACGGTATCGGTATCGGGAGGTGCTAG | 8.24
GACGATTTCACACTGGAGACGTGCTAG | 0.17
TTAGATCTCACTATCGATTAGTGCTAG | 1.39
TCATTTTAATTTTTAACACTGTGCTAG | 0.492
GACGGACCGGACTATCGGGACGTGCTA | -0.522
TTAGGTATCGGGGATCGGTTAGTGCTA | 3.79
TCAGCTGTCCTTTGCAAACTGTGCTAG | -0.092
TTAGGTCTCCTTCGCCTTTAGTGCTAG | 0.35
TTGGGTCTCGGTTTCGGTTAGTGCTAG | 9.62
TTAGGTTTCGGGATTGGGTTAGTGCTA | 8.66
GACGAACTCGGGTATCGAGACGTGCTA | 0.555
TCATGAAGCGCTTCTCGAACTGTGCTA | -0.338

Block 3
Target: Sal-like protein 4, full length isoform B (SALL4, Homo sapiens, UniProt Q9UJQ4-2, residues 1-616)
Technique: universal PBM
Form: double-stranded DNA, one strand shown
Sample: in vitro
Tested at: not given
Notes: 8-mer, flanks averaged, mean of replicates
Reading: higher = stronger binding
Strand | E-score
CGTTAATA | 0.263
AGATTGTC | -0.048
GATCTGCC | -0.149
ACGAGACC | -0.202
AGCCCTGC | -0.253
GGTAATGA | 0.144
AAGTCAAA | 0.147
CGAGGTGA | -0.0653
AGCAATGA | -0.0216
ATGACGAA | 0.186
AACTTTGT | 0.263
GGAGGGAC | -0.2
ACACCTGT | -0.0233
CGTTCTGA | -0.104
GTCACTTA | 0.197
TACCGAAA | 0.119
GACATTAA | 0.25
GTGCAGAA | 0.0855
ATGAGCCG | -0.0893
CACGTCAA | -0.059
CTAGCTTA | 0.106
ACGTTTTG | 0.121
AGAATATG | 0.298
GTGTTCTA | 0.148
CCATCAAA | 0.0136

Block 4
Target: RING finger protein unkempt homolog, zinc fingers 1-6, GST-SBP tag (UNK, Homo sapiens, UniProt Q9C0B0, residues 30-357)
Sequence of UniProt Q9C0B0 (30-357, looked up): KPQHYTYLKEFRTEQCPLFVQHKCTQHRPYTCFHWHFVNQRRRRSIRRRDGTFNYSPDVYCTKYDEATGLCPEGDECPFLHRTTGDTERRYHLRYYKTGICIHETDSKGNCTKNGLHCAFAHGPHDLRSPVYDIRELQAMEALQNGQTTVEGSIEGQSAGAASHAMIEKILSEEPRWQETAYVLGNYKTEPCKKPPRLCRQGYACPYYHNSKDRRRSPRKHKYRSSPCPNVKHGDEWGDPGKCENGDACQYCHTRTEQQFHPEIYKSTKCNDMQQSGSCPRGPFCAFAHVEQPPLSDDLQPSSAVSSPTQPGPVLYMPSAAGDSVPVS
Technique: RNA Bind-n-Seq
Form: RNA
Sample: in vitro
Tested at: not given
Notes: RNA with constant flanks, ends assumed
Reference: input RNA pool
Reading: higher = stronger binding
Strand | bound/input enrichment [ratio]
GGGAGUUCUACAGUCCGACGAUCACUCCUCCCCCUACUCCACCGGACCUCAACCAGGACUUCAGUGGAUUUCAGCUUCCCGUGGAUGUUGCACUCAAACGGGCUGCAGAGAUGGAGCUUCAGGCAAAACUUACAGCUUAACCCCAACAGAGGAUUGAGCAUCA | 0.186
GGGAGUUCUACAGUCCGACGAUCGAACAUGUUGACAAACUGAAAAUCCCUCCUGAAGAAAUGAAACAAAUGGAACAAAAGUUGAUCCGAGACUUCCAAGAAUAUGUAGAGCCAGGAGAAGACUUCCCGGCUUCUCCCCAGAGACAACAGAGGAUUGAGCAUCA | 0.608
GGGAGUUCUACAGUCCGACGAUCGAACCUGCUCUUGCAUCAGUGGUAAUCCAUAAGGAGGCCACUGUCUUUGAUCUUCCUAAAUUCCGUGUUUGUGGUAGUUCUCAAGAGAGUGACUCAUUACCUAACUCAGCUCAUGAUCGACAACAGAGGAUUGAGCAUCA | 0.151
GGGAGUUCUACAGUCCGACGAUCUUCUUUUCUAAAACCUUGUUUAACUGCCUUGUUUAUGGACCAGAAAAUACCCAGCCAAUUUCCGAUGAUGUUUCAGACUUUGAUGUGGCACAGAUUAUAAUCAGGAUAAAUACUGCAACACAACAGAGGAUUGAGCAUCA | 0.277
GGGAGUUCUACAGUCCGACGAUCAAGAAGAAGCAAGGGGAAGAUAACUCUCACACACAGGACACAGAAGACCUAGAAAAGGACACCCGAGAAGAGCUUCCAGUGAAUACCUCAAAAGCCCGACCAAAACAGGAGAAAGCUUGUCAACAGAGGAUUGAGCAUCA | 0.358
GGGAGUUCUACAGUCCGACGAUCAAAAUAAAUAAUCUCAUCCCCAAACUGUAGUAAUUGUUACAAUUUUCUAUUUAAAAAAUGAACCGUACAUGCAGAAAUUGACCUGAUUUCCAUUUGCAACAGGAAGACACUGGCUUUACACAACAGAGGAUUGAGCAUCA | 0.77
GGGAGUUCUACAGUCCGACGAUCGGUGUUGCUGGAGUAGGGGCUGGUCUGGCAUAUCUAAUAAGAUAGCCUUGUGAGUGCAACCGGGGACUCUUAAAGCUCCAGCCACCAAACUACAUGCAUCUGUGAAAACAUGUGUAUUUACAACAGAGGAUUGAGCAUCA | 0.142
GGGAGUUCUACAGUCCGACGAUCCUGCUGUCCAAGAUCGAUGGCGUUGAGCAGCUGAACAACAUCCUCGUUAUCGGAAUGACCAACCGACCAGAUUUGAUAGACGAAGCUCUCCUUCGACCCGGAAGACUGGAAGUUAAAAUGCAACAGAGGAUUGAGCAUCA | 0.333

Repeated from above (block 3):
Strand | E-score
AGATTGTC | -0.048
CACGTCAA | -0.059
AAGTCAAA | 0.147
AGCAATGA | -0.0216
CCATCAAA | 0.0136
CGAGGTGA | -0.0653
GTGTTCTA | 0.148
CTAGCTTA | 0.106
